Measurements of several laboratories.
Protocols differ between the studies behind these lines. Numbers after ± are the reported error.

SMILES = CCCC[C@H](NC(=O)[C@@H](NC(=O)[C@H](CC(=O)O)NC(=O)[C@H](CCC(N)=O)NC(=O)[C@H](CC(C)C)NC(=O)[C@H](CC(C)C)NC(=O)[C@H](CCCN)NC(=O)[C@H](CCCNC(=N)N)NC(=O)[C@H](C)NC(=O)[C@H](CO)NC(=O)[C@H](CC(C)C)NC(=O)[C@H](CCC(N)=O)NC(=O)[C@H](CC)NC(=O)[C@H](CC(C)C)NC(=O)[C@@H](NC(=O)[C@H](CCCN)NC(=O)[C@H](CCCNC(=N)N)NC(=O)[C@H](Cc1ccc(O)cc1)NC(=O)[C@H](CO)NC(=O)[C@H](CCC(N)=O)NC(=O)[C@@H](NC(=O)[C@H](Cc1ccccc1)NC(=O)[C@@H](NC(=O)[C@H](C)NC(=O)[C@H](CC(=O)O)NC(=O)[C@@H](C)NC(=O)[C@H](Cc1ccc(O)cc1)NC)[C@@H](C)CC)[C@@H](C)O)C(C)C)[C@@H](C)CC)C(=O)N[C@@H](CC(=O)O)C(=O)NCCCCNC(=N)N; test = GH release; test system = rat, male, serum; conditions = subcutaneous, 3 µg/kg, 15 min; scale = relative to: reference GHRH agonist JI-38; endpoint = relative potency; result = 1.27
SMILES = CC(=N)N(C)c1ccc(C(=O)Nc2ccc(Cl)cc2C(=O)Nc2ccc(Cl)cn2)cc1; test system = human plasma; endpoint = concentration doubling prothrombin time; result = 0.12 ± 0.03 µM
SMILES = CC(=O)Nc1ccc(OC(=O)CCC(=O)[O][Pt-2]23([O]C(=O)CCC(=O)Oc4ccc(NC(C)=O)cc4)([NH2+][C@@H]4CCCC[C@H]4[NH2+]2)[O]C(=O)C(=O)[O]3)cc1; test = flow cytometry; test system = BALB/c mouse, 4T1 tumour model, spleen; conditions = dose not given; scale = relative to: CD3+ cells; endpoint = CD8+ T cells; result = 9.32%
SMILES = Cc1cc(O)c(C=O)c2c1C(=O)Oc1c(CO)c(O)c3c(c1O2)C(O)OC3=O (stereo not shown); test system = rat, male, streptozotocin-induced diabetes, testis; conditions = oral, 10 mg/kg, 9 weeks; endpoint = relative organ weight; result = 0.93 ± 0.01 g
SMILES = C=C1C[C@@]23CC[C@H]4[C@@](C)(CCC[C@@]4(C)C(=O)O[C@@H]4O[C@H](CO)[C@@H](O)[C@H](O)[C@H]4O)[C@@H]2CC[C@]1(O[C@@H]1O[C@H](CO[C@H]2O[C@H](CO)[C@@H](O)[C@H](O)[C@H]2O)[C@@H](O)[C@H](O)[C@H]1O[C@@H]1O[C@H](CO)[C@@H](O)[C@H](O)[C@H]1O)C3; test system = C57BL/6N mouse, high-fat diet; conditions = drinking water, 0.2 g/L, 16 weeks; scale = relative to: vehicle; endpoint = body weight; result = no effect
SMILES = O=C(OC(C(F)(F)F)C(F)(F)F)N1CCC(CNS(=O)(=O)c2ccc(Cl)cc2)CC1; test system = C57BL/6J mouse corneal kindling; conditions = oral, 30 mg/kg, day 11; scale = relative to: control; endpoint = seizure severity; result = decreased
SMILES = COc1c2c(cc3oc(COC4OC(CO)C(O)C(O)C4O)cc(=O)c13)OC(C(C)(C)O)C2 (stereo not shown); test = analgesia; test system = mouse; conditions = oral, 2 mg/kg, 0.5 h; endpoint = hot plate latency; result = 11.8 ± 1.5 s
SMILES = CC[C@H](C)[C@H](NC(=O)[C@H](CC(N)=O)NC(=O)[C@H](CC(N)=O)NC(=O)[C@H](CCCNC(=N)N)NC(=O)[C@H](CC(N)=O)NC(=O)[C@H](CCCNC(=N)N)NC(=O)[C@H](CCCCN)NC(=O)[C@@H](NC(=O)[C@H](CC(N)=O)NC(=O)[C@H](CCSC)NC(=O)[C@H](CC(C)C)NC(=O)[C@H](Cc1c[nH]c2ccccc12)NC(=O)[C@H](CCC(N)=O)NC(=O)[C@@H](NC(=O)[C@H](Cc1ccccc1)NC(=O)[C@H](CC(=O)O)NC(=O)[C@H](CCC(N)=O)NC(=O)[C@H](C)NC(=O)[C@H](CCCNC(=N)N)NC(=O)[C@H](CCCNC(=N)N)NC(=O)[C@H](CO)NC(=O)[C@H](CC(=O)O)NC(=O)[C@H](CC(C)C)NC(=O)[C@H](Cc1ccc(O)cc1)NC(=O)[C@H](CCCCN)NC(=O)[C@H](CO)NC(=O)[C@H](Cc1ccc(O)cc1)NC(=O)[C@H](CC(=O)O)NC(=O)[C@H](CO)NC(=O)[C@@H](NC(=O)[C@H](Cc1ccccc1)NC(=O)[C@@H](NC(=O)CNC(=O)[C@H](CCC(=O)O)NC(=O)[C@@H](CO)NC(=O)[C@@H](N)Cc1c[nH]cn1)[C@@H](C)O)[C@@H](C)O)C(C)C)[C@@H](C)O)C(=O)N[C@@H](C)C(=O)N[C@@H](CSCC(=O)NCCOCCOCCOCCOCCC(=O)O[C@H]1CC[C@@]2(C)C(=CC[C@H]3[C@@H]4CC[C@H]([C@H](C)CCCC(C)C)[C@@]4(C)CC[C@@H]32)C1)C(N)=O; test system = diet-induced obese mice, plasma; conditions = subcutaneous, 1.9 µmol/kg, 14 days, chronic dosing; endpoint = triglyceride level; result = 47 ± 6 mg/dL
SMILES = CCCC[C@H](NC(=O)[C@@H](NC(=O)[C@H](CC(=O)O)NC(=O)[C@H](CCC(N)=O)NC(=O)[C@H](CC(C)C)NC(=O)[C@H](CC(C)C)NC(=O)[C@H](CCCN)NC(=O)[C@H](CCCNC(=N)N)NC(=O)[C@H](C)NC(=O)[C@H](CO)NC(=O)[C@H](CC(C)C)NC(=O)[C@H](CCC(N)=O)NC(=O)[C@H](CC)NC(=O)[C@H](CC(C)C)NC(=O)[C@@H](NC(=O)[C@H](CCCN)NC(=O)[C@H](CCCNC(=N)N)NC(=O)[C@H](Cc1ccc(O)cc1)NC(=O)[C@H](CO)NC(=O)[C@H](CCC(N)=O)NC(=O)[C@@H](NC(=O)[C@H](Cc1ccccc1)NC(=O)[C@@H](NC(=O)[C@H](C)NC(=O)[C@H](CC(=O)O)NC(=O)[C@H](C)NC(=O)CCc1ccc(O)cc1)[C@@H](C)CC)[C@@H](C)O)C(C)C)[C@@H](C)CC)C(=O)N[C@@H](CC(=O)O)C(=O)NCCCCNC(=N)N; test = GH release; test system = male rat, serum; conditions = subcutaneous, dose not given, 30 min; scale = relative to: GHRH(1-29)NH2; endpoint = relative potency; result = 112
SMILES = COc1ccc(C2CC(c3ccc(C)cc3)=Nc3ccccc3S2)cc1 (stereo not shown); test system = Wistar rat, STZ-induced diabetes, serum; conditions = 20 mg/kg, 28 days; endpoint = total cholesterol; result = 133 mg/dL
SMILES = CC/C=C\C/C=C\C/C=C\C/C=C\C/C=C\CCCCOC(CC)C(=O)O (stereo not shown); test system = APOE*3Leiden.CETP mice, high-fat/cholesterol diet; conditions = 112 mg/kg/day, 20 weeks; scale = relative to: control; endpoint = microvesicular steatosis change; result = -35%
SMILES = COc1cccc(OCCN2CCC[C@H](CN3CCc4cc(OC)c(OC)cc4CC3=O)C2)c1; test system = VTA dopamine neurons, stress-naive female mice; conditions = intraperitoneal, 1 mg/kg; scale = relative to: baseline; endpoint = burst firing (%SWB); result = no effect
SMILES = CCCC[C@H](NC(=O)[C@@H](NC(=O)[C@H](CC(=O)O)NC(=O)[C@H](CCC(N)=O)NC(=O)[C@H](CC(C)C)NC(=O)[C@H](CC(C)C)NC(=O)[C@H](CCCN)NC(=O)[C@H](CCCNC(=N)N)NC(=O)[C@H](C)NC(=O)[C@H](CO)NC(=O)[C@H](CC(C)C)NC(=O)[C@H](CCC(N)=O)NC(=O)[C@H](CC)NC(=O)[C@H](CC(C)C)NC(=O)[C@@H](NC(=O)[C@H](CCCN)NC(=O)[C@H](CCCNC(=N)N)NC(=O)[C@H](Cc1ccc(O)cc1)NC(=O)[C@H](CO)NC(=O)[C@H](CC(N)=O)NC(=O)[C@@H](NC(=O)[C@H](Cc1ccccc1)NC(=O)[C@@H](NC(=O)[C@H](C)NC(=O)[C@H](CC(=O)O)NC(=O)[C@@H](CC)NC(=O)CCc1ccc(O)cc1)[C@@H](C)CC)[C@@H](C)O)C(C)C)[C@@H](C)CC)C(=O)N[C@@H](CO)C(=O)N[C@@H](CCCNC(=N)N)C(=O)NCCCC(N)=O; test = GH release; test system = male rat, serum; conditions = subcutaneous, dose not given, 15 min; scale = relative to: GHRH(1-29)NH2; endpoint = relative potency; result = 52.6
SMILES = N[C@@H](CCC(=O)O)C(=O)N1CCC[C@H]1C(=O)NCC(=O)NCC(=O)O; test = diketopiperazine formation, Arrhenius plot, ESI-MS; test system = 1-propanol; conditions = 70, 80, 90 °C, 0.5% acetic acid; endpoint = activation energy; result = 17 ± 3.59 kcal/mol
SMILES = CC(=O)N[C@@H](CC(N)=O)C(=O)NCC(=O)N[C@@H](C)C(=O)N[C@@H](C)C(N)=O; test = 1H NMR; test system = sodium phosphate buffer 50 mM; conditions = pH 5.1, 55 °C; endpoint = rate constant succinimide to β-Asp; result = 0.0531 h⁻¹
SMILES = CCCC[C@H](NC(=O)[C@@H](NC(=O)[C@H](CC(=O)O)NC(=O)[C@H](CCC(N)=O)NC(=O)[C@H](CC(C)C)NC(=O)[C@H](CC(C)C)NC(=O)[C@H](CCCN)NC(=O)[C@H](CCCNC(=N)N)NC(=O)[C@H](C)NC(=O)[C@H](CO)NC(=O)[C@H](CC(C)C)NC(=O)[C@H](CCC(N)=O)NC(=O)[C@H](CC)NC(=O)[C@H](CC(C)C)NC(=O)[C@@H](NC(=O)[C@H](CCCN)NC(=O)[C@H](CCCNC(=N)N)NC(=O)[C@H](Cc1ccc(O)cc1)NC(=O)[C@H](CO)NC(=O)[C@H](CCC(N)=O)NC(=O)[C@@H](NC(=O)[C@H](Cc1ccccc1)NC(=O)[C@@H](NC(=O)[C@H](C)NC(=O)[C@H](CC(=O)O)NC(=O)[C@@H](C)NC(=O)[C@H](Cc1ccc(O)cc1)N(C)C(C)=O)[C@@H](C)CC)[C@@H](C)O)C(C)C)[C@@H](C)CC)C(=O)N[C@@H](CC(=O)O)C(=O)NCCCCNC(=N)N; test = GH release; test system = male rat, serum; conditions = subcutaneous, dose not given, 15 min; scale = relative to: GHRH(1-29)NH2; endpoint = relative potency; result = 18.8
SMILES = Cc1nc2c(cnn2C(C)C)cc1C(=O)NCc1ccc(C(C)O)c(C)n1 (stereo not shown); test = larval locomotion; test system = Drosophila melanogaster Tip60 RNAi larvae; conditions = oral in food; endpoint = effective concentration; result = 10 nM
SMILES = Cc1cc2c(cc1C1(c3ncc(C(=O)O)cn3)CC1)C(C)(C)CCC2(C)C; test = RNA sequencing, measured: Sfrp5; test system = rat, brain; conditions = dose not given, 24 h; scale = relative to: vehicle; endpoint = log2 fold change; result = 0.51
SMILES = O=C1/C(=C/c2ccccc2)Oc2cc(O)c3c(oc4cc(O)c(O)cc43)c21; test = ABTS scavenging, absorbance; endpoint = EC50; result = 2780 µM
SMILES = CCCC[C@H](NC(=O)[C@@H](NC(=O)[C@H](CC(=O)O)NC(=O)[C@H](CCC(N)=O)NC(=O)[C@H](CC(C)C)NC(=O)[C@H](CC(C)C)NC(=O)[C@H](CCCN)NC(=O)[C@H](CCCNC(=N)N)NC(=O)[C@H](C)NC(=O)[C@H](CO)NC(=O)[C@H](CC(C)C)NC(=O)[C@H](CCC(N)=O)NC(=O)[C@H](CC)NC(=O)[C@H](CC(C)C)NC(=O)[C@@H](NC(=O)[C@H](CCCN)NC(=O)[C@H](CCCNC(=N)N)NC(=O)[C@H](Cc1ccc(O)cc1)NC(=O)[C@H](CO)NC(=O)[C@H](CCC(N)=O)NC(=O)[C@@H](NC(=O)[C@H](Cc1ccccc1)NC(=O)[C@@H](NC(=O)[C@H](C)NC(=O)[C@H](CC(=O)O)NC(=O)[C@@H](C)NC(=O)CCc1ccc(O)cc1)[C@@H](C)CC)[C@@H](C)O)C(C)C)[C@@H](C)CC)C(=O)N[C@@H](CC(=O)O)C(=O)N[C@H](CCCNC(=N)N)C(=O)NC; test = GH release; test system = male rat, serum; conditions = subcutaneous, dose not given, 30 min; scale = relative to: GHRH(1-29)NH2; endpoint = relative potency; result = 253
SMILES = [2H]C([2H])([2H])C(c1cc2nnc(-c3cc(F)ccc3F)n2nc1OCc1ncnn1C)(C([2H])([2H])[2H])C([2H])([2H])[2H]; test system = amygdala-kindled Wistar rats, cortex; conditions = oral, 1 mg/kg, 2 h before stimulation; scale = relative to: baseline; endpoint = afterdischarge duration change; result = -30%
SMILES = CCOc1ccc(C(=O)N2c3ccc(F)cc3[C@@H](Nc3ccccc3)C[C@H]2C)cc1; test system = Aedes albopictus second-instar larvae; conditions = 1 µM; endpoint = logit mortality; result = -0.05
SMILES = CC12N3Cc4c(c(OCCCS(=O)(=O)[O-])c5ccccc5c4OCCCS(=O)(=O)[O-])CN1C(=O)N1Cc4c(c(OCCCS(=O)(=O)[O-])c5ccccc5c4OCCCS(=O)(=O)[O-])CN(C3=O)C12C.[Na+].[Na+].[Na+].[Na+] (stereo not shown); test = phase solubility; conditions = together with: camptothecin; endpoint = association constant; result = 22000 M⁻¹
SMILES = Cc1nc(C)c(C=[N+]([O-])C(C)(C)C)nc1C; test = Western blot, measured: Nrf2; test system = mouse, MPTP model, substantia nigra nuclei; conditions = 30 mg/kg; endpoint = protein level increase; result = 45.6%
SMILES = CCCCCCCCN(CCC(=O)Nc1ccccc1)C(=O)c1ccccn1; test system = Lmna G609G/G609G mouse, 3-month-old; conditions = intraperitoneal, 40 mg/kg; scale = relative to: untreated; endpoint = thymus size; result = increased

Excerpt of the above:
SMILES = CCOc1ccc(C(=O)N2c3ccc(F)cc3[C@@H](Nc3ccccc3)C[C@H]2C)cc1; test system = Aedes albopictus second-instar larvae; conditions = 1 µM; endpoint = logit mortality; result = -0.05
SMILES = CC12N3Cc4c(c(OCCCS(=O)(=O)[O-])c5ccccc5c4OCCCS(=O)(=O)[O-])CN1C(=O)N1Cc4c(c(OCCCS(=O)(=O)[O-])c5ccccc5c4OCCCS(=O)(=O)[O-])CN(C3=O)C12C.[Na+].[Na+].[Na+].[Na+] (stereo not shown); test = phase solubility; conditions = together with: camptothecin; endpoint = association constant; result = 22000 M⁻¹
